Earlier results as cited in several papers.
Each line is one published result; not all experiments were run side by side. “And” joins repeats or separate records; there may be more than shown. Numbers after ± are the reported error. In brackets after ≈: the same amount, converted by molar mass.
UniProt Q96L34, sequence (whole entry, looked up): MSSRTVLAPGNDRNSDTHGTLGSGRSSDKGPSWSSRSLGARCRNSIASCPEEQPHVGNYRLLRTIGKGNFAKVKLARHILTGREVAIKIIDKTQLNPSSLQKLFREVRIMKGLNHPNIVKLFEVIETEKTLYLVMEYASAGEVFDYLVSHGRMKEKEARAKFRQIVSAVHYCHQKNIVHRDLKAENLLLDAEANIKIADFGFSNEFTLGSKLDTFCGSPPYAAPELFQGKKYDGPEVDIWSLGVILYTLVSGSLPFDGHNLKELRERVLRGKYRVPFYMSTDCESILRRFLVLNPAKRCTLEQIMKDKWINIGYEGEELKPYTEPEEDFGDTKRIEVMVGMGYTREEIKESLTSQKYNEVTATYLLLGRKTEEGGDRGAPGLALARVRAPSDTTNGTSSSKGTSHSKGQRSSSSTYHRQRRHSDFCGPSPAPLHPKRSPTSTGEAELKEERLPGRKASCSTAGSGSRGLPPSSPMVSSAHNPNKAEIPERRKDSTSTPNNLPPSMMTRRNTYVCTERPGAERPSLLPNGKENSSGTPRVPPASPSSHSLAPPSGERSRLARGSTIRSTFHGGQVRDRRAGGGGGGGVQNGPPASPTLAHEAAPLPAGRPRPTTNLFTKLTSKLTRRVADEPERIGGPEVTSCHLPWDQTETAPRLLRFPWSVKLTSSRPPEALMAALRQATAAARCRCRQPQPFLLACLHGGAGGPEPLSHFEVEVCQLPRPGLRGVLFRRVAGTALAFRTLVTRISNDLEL

CC1(C)S[C@@H]2[C@H](NC(=O)[C@H](N)c3ccccc3)C(=O)N2[C@H]1C(=O)O  MIC (Enterobacter cloacae; clinical isolate RKI-No_141/15): > 16 µg/mL
Nc1cccc2c1C(=O)N(C1CCC(=O)NC1=O)C2=O (stereo not drawn)  6-month progression-free survival (relapsed refractory multiple myeloma patients; dose not given, historical, single agent): 20%
Cc1ccc(C)c(OCCCC(C)(C)C(=O)O)c1  triglyceride decrease (HIV-infected patients starting therapy, plasma; dose not given): 44.2%
CN(C)c1ccc2c(c1)C#Cc1ccc([N+](C)(C)C)cc1C#C2.O=C([O-])C(F)(F)F  second-order rate constant (UV spectroscopy; methanol; room temperature, added: benzyl azide): 0.0973 M⁻¹ s⁻¹ and 0.0976 M⁻¹ s⁻¹
CCNCCc1ccc(CN(CC)c2cc(OC)ccc2[C@@H]2CCc3cc(O)ccc3C2)cc1  median progression-free survival (human, ER-positive HER2-negative breast cancer, ESR1 mutation; dose not given): 3.65 months
CC1(C)CCC(CN2CCN(c3ccc(C(=O)NS(=O)(=O)c4ccc(NCC5CCOCC5)c([N+](=O)[O-])c4)c(Oc4cnc5[nH]ccc5c4)c3)CC2)=C(c2ccc(Cl)cc2)C1  CR with partial hematologic recovery rate (human, newly diagnosed AML; concentration not given, added: azacitidine): 24%
Cc1cc(C)c(CNC(=O)c2cc(Cl)c3c(c2C)O[C@@](C)([C@H]2CC[C@H](N(C)C)CC2)O3)c(=O)[nH]1  objective response rate (Japanese relapsed/refractory ATLL patients; dose not given): 48%
CC[C@@H]1CN(C(=O)NCC(F)(F)F)C[C@@H]1c1cnc2cnc3[nH]ccc3n12  ACR20 response rate (rheumatoid arthritis patients; 15 mg): 70.5%
COC[C@@H](c1ccc(C(F)(F)F)cc1)N1CCN(C2(C)CCN(C(=O)c3c(C)ncnc3C)CC2)C[C@@H]1C  duration of viral suppression (human, HIV infected; dose not given, after short monotherapy, 14 days): 2 to 3 days
Cc1c(C(=O)Nc2ccc(N3C[C@@H](C)O[C@@H](C)C3)nc2)cccc1-c1ccc(OC(F)(F)F)cc1  time to nadir (measured: Gli1 mRNA, stromal; mouse; oral, 40 mg/kg, single dose): ~20 h
O=C(c1ccc(C#Cc2cccc(F)c2)nc1)N1CCC(O)CC1  fEPSP slope (hippocampal CA1 Schaffer collateral synapse; concentration not given; reference: baseline): 103 ± 2%
C=CC(=O)NC1CCN(c2ncc3ncnc(Nc4ccc(Oc5ccc6c(c5)ncn6C)c(C)c4)c3n2)CC1  confirmed overall response rate (patients, NSCLC, HER2-mutant, previously treated; 120 mg once daily): 71%
NC(=S)NN=Cc1ncccc1N  complete metabolic response (PET-CT; cervical cancer patients; dose not given, 3 months post-therapy, phase II, added: cisplatin chemoradiation): 96%
CC(C)n1c(Nc2cccnc2)nc2cnc(Nc3ccc(N4CCN(C)CC4)cc3)nc21  overall response rate (human relapsed or refractory AML; 160 mg/day and higher): ~43%
C[N+]1(C)CCC(OC(=O)C(O)(c2ccccc2)C2CCCC2)C1 (stereo not drawn)  placebo-corrected trough FEV1 change (COPD patients; inhaled, 25 µg once daily, 24 h postdose, dosing day 7; reference: baseline): 89 mL
COC(=O)[C@H](Cc1ccccc1)NC(=O)[C@@H](N)CC(=O)O  sweetness potency (sensory evaluation; human sensory panel, water; unit not given; reference: sucrose): 200
COc1cc(NC(=O)CCN2CCC(OC(=O)Nc3ccccc3-c3ccccc3)CC2)c(Cl)cc1CNC[C@H](O)c1ccc(O)c2[nH]c(=O)ccc12  placebo-corrected trough FEV1 change (COPD patients; inhaled, 100 µg once daily, 24 h postdose, dosing day 1; reference: baseline): 96 mL
COC(=O)C1=C(C)NC(C)=C(C(=O)OC)C1c1c(C)nc2sc(Cl)cn12  inhibition (calcium-induced contraction; guinea pig aortic strip; 50 µM, added: K+ 80 mM depolarisation): 24 ± 1.8%
O=C(c1cccnc1-c1ccncc1)N1CCC(O)(Cc2ccccc2)CC1  placebo-adjusted seizure frequency reduction (measured: convulsive and drop seizures; children with Dravet or Lennox-Gastaut syndrome; dose not given, maintenance period, combined population): 30.5%
CNC(C)C1CCC(N)C(OC2C(N)CC(N)C(OC3OCC(C)(O)C(NC)C3O)C2O)O1 (stereo not drawn)  MIC (Enterobacter cloacae; clinical isolate RKI-No_146/09): 2 µg/mL (≈ 4.19 µM)
CC(C)c1cc(Oc2c(Cl)cc(-n3nc(C#N)c(=O)[nH]c3=O)cc2Cl)n[nH]c1=O  MASH resolution (human, MASH patients; dose not given; reference: patients): ~30%
Nc1cc(C(F)(F)F)c(-c2nc(N3CCOCC3)nc(N3CCOCC3)n2)cn1  remaining activity (MAP/microtubule affinity-regulating kinase 4 (MARK4, Homo sapiens, UniProt Q96L34); enzyme activity; 10 µM; reference: untreated): 76%
C=CC(=O)Nc1cc(Nc2nccc(-c3cn(C)c4ccccc34)n2)c(OC)cc1N(C)CCN(C)C  objective response rate (patients with EGFR-mutant NSCLC; dose not given, first-line clinical trial): 80%
CC(=O)c1cnccn1  odour detection threshold (human, water): 62 µg/kg

A few entries again:
Cc1c(C(=O)Nc2ccc(N3C[C@@H](C)O[C@@H](C)C3)nc2)cccc1-c1ccc(OC(F)(F)F)cc1  time to nadir (measured: Gli1 mRNA, stromal; mouse; oral, 40 mg/kg, single dose): ~20 h
C=CC(=O)NC1CCN(c2ncc3ncnc(Nc4ccc(Oc5ccc6c(c5)ncn6C)c(C)c4)c3n2)CC1  confirmed overall response rate (patients, NSCLC, HER2-mutant, previously treated; 120 mg once daily): 71%
